Measurements gathered from unrelated publications.
A part holds a random share of what one study measured.

Set 1 — host: mouse; sample: microsomes or S9; tested at: 2 µM; time: 0.5 h
Compound | remaining compound
CCC1(N2CCOCC2)CCN(C(=O)c2c[nH]c(=O)cc2OC)CC1 | 63.7%
N#Cc1ccc(Oc2ccc(NC(=O)NCc3cc[nH]n3)cn2)cc1 | 46.7%
Cc1ccc2nc3c(cc(C(=O)N4COCC4(C)C)n3Cc3ccccc3)c(=O)n2c1 | 0.113%
CC1=CC(C)(C)Oc2cc(C)c(C(=O)N=C(N)N)cc21 | 19.3%
CC1CC(=O)N(Cc2ccc(Br)cc2)c2ccccc2N1 (stereo not shown) | 1.46%
CCOc1ccc(CCNC(=O)Cn2cccc2C(=O)c2ccccc2C)cc1OCC | 0.783%
Cc1n[nH]cc1CNC(=O)c1ccc(Cn2c(=O)c3cccn3c3cccnc32)o1 | 2.16%
Cc1c(-c2ccccc2)sc2ncnc(NS(=O)(=O)c3ccc(Cl)s3)c12 | 8.82%
CS(=O)(=O)N1CCC[C@H]1C(=O)NCCCn1nnc2ccccc21 | 87.9%
O=C1OC(C(=O)O)Cc2c(F)cc(Br)cc21 (stereo not shown) | 83.9%
Cc1cc(C)c2nc(-c3ccc(Cl)s3)cc(C(=O)O)c2c1 | > 100%
COc1cc2[nH]c3c(=O)n(-c4ccccc4)ncc3c2cc1OC | 62.3%

Set 2 — read-out: ligand displacement; technique: radioligand; tested at: 10 µM
Target: 5-hydroxytryptamine receptor 1E (HTR1E, Homo sapiens, UniProt P28566)
UniProt P28566, sequence (whole entry, looked up): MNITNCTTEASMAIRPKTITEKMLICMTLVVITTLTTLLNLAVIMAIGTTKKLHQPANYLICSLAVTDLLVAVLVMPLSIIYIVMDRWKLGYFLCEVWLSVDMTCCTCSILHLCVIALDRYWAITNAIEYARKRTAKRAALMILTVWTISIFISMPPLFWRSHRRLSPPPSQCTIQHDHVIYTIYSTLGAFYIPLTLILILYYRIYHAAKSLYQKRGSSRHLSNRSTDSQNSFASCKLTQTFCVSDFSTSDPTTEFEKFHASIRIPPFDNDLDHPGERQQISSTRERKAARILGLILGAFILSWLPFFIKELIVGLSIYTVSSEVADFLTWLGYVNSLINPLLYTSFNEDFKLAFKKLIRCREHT
SMILES | inhibition
O=C(Nc1cccnn1)N1CC(CC=Cc2cncc(Oc3ccc(C(F)(F)F)cn3)n2)C1 | 0.84%
Cc1c[nH]c2nccc(Oc3c(F)cc(Nc4cc(Cl)nc(N)n4)cc3F)c12 | -31.2%
O=C(O)c1cc(-c2ccc(C3CCNCC3)cc2)c2ccc(-c3ccc(C(F)(F)F)cc3)cc2c1 | 13.4%
C[C@H](NC(=O)Nc1cc2[nH]ncc2c(CO)n1)c1ccccn1 | -8.44%
O=C(NCc1ncc(C(F)(F)F)cc1Cl)c1ccc2c(c1)C1(CCS(=O)(=O)CC1)[C@@H](C1CC1)N2S(=O)(=O)c1ccc(F)cc1 | -1.55%
Cc1nccc(COC(=O)N2C[C@@H]3[C@@H](CNC(=O)c4ccc5[nH]nnc5c4)[C@@H]3C2)n1 | 31.8%
O=C(NC[C@@H]1[C@H]2CN(C(=O)OCc3cc(C(F)(F)F)cc(C(F)(F)F)c3)C[C@@H]12)c1ccc2[nH]nnc2c1 | 33.6%
CCCCN(CCCC)C(=O)CN1C[C@@H](c2cc(OC)c3c(c2)OCO3)[C@H](C(=O)O)[C@H]1CC(C)(C)CCC | 27.1%

Set 3 — read-out: enzyme activity; action: inhibitor; tested at: 0.5 µM; reference: control
Target: Tyrosine-protein kinase Fyn (FYN, Homo sapiens, UniProt P06241)
UniProt P06241, sequence (whole entry, looked up): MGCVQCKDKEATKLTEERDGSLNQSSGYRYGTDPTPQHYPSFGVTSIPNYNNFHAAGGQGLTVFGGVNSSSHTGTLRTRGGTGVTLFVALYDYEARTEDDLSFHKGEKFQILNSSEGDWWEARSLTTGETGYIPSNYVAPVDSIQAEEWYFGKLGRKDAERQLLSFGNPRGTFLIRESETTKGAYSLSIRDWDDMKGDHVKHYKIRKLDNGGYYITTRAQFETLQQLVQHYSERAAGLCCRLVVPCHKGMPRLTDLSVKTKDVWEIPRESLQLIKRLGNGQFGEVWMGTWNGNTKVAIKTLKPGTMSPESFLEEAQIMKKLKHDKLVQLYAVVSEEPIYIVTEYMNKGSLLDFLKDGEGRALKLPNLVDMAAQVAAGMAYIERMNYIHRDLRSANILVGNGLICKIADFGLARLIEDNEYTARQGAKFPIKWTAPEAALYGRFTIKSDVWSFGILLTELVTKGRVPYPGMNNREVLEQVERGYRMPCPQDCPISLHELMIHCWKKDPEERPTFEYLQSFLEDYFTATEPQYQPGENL
SMILES | remaining activity [%]
CCN(CC)CCNC(=O)c1c(C)[nH]c(/C=C2\C(=O)Nc3ccc(F)cc32)c1C | 71.3
CCOc1nc(NC(=O)Cc2cc(OC)ccc2OC)cc(N)c1C#N | 101
c1ccc(-c2cnc(Nc3ccc(OCCN4CCCC4)cc3)s2)cc1 | 81.1
Ic1cccc(CSc2nnc(-c3ccncc3)o2)c1 | 102
Cn1nc2c3c(cccc31)C(=O)c1ccccc1-2 | 93.8
Cc1cc2ncc(-c3ccccc3)nc2cc1C | 99.4
Nc1cccc(-c2cc3c(Oc4cccc(O)c4)ncnc3[nH]2)c1 | 7.92
Cc1nc2cc3nc(-c4cccs4)cnc3cc2n1C | 107
COc1cc2ncnc(Nc3cccc(Cl)c3)c2cc1OC | 85.7
N#Cc1c(NC(=O)c2cccc3ccccc23)sc2c1CCCC2 | 102
O=C(NC(NC(=S)Nc1ccc(F)c([N+](=O)[O-])c1)C(Cl)(Cl)Cl)C(c1ccccc1)c1ccccc1 (stereo not shown) | 91.2
COc1cc2ncnc(Nc3ccc(O)c(Br)c3)c2cc1OC | 80.4
COc1cc2c(cc1OC)-c1[nH]nc(Nc3cccc(F)c3)c1C2 | 73.4
O=C1C(Cl)=C(N2C(=O)CCC2=O)C(=O)c2ccccc21 | 111
Cc1cn(-c2cc(NC(=O)c3ccc(C)c(Nc4nccc(-c5cccnc5)n4)c3)cc(C(F)(F)F)c2)cn1 | 102
O=C(Nc1cccc(Nc2nccc(Nc3cccc(C(F)(F)F)c3)n2)c1)C1CC1 | 54.1
CN([C@@H](Cc1ccc(OS(=O)(=O)c2cccc3cnccc23)cc1)C(=O)N1CCN(c2ccccc2)CC1)S(=O)(=O)c1cccc2cnccc12 | 101
CCN(CC)C(=O)c1ccc(Nc2nc(OCC3CCCCC3)c3[nH]cnc3n2)cc1 | 62.6
CN(C)C[C@H]1CCn2c(c(C3=C(c4cn(C)c5ccccc45)C(=O)NC3=O)c3ccccc32)C1 | 92.8
N#C/C(=C\c1ccc(O)c(O)c1)C(=O)NCc1ccccc1 | 116
c1ccc(-c2[nH]ncc2-c2ccnc3ccccc23)nc1 | 110

Set 4 — cell line: HaCaT; tested at: 100 µM; time: 36 h
Compound | viability [%]
CNC(=C[N+](=O)[O-])NCCSCc1csc(CN(C)C)n1 | 99.3
Cn1c(=O)c2[nH]c(Br)nc2n(C)c1=O | 80.5
CC1=CC(=O)c2ccccc2C1=O | 7.14
CN(N=O)C(=O)N[C@@H](C=O)[C@@H](O)[C@H](O)[C@H](O)CO | 93.4
CC1CCC(C(C)C)C(O)C1 (racemic) | 100
CCCNC(=O)NS(=O)(=O)c1ccc(Cl)cc1 | 96.5
Cc1cc(C)cc(OCC2CNC(=O)O2)c1 (stereo not shown) | 91
C[C@@H]1CC(=O)NN=C1c1ccc(NN=C(C#N)C#N)cc1 | 81.4

A few entries again (set 1):
Compound | remaining compound
CCC1(N2CCOCC2)CCN(C(=O)c2c[nH]c(=O)cc2OC)CC1 | 63.7%
CC1=CC(C)(C)Oc2cc(C)c(C(=O)N=C(N)N)cc21 | 19.3%
CCOc1ccc(CCNC(=O)Cn2cccc2C(=O)c2ccccc2C)cc1OCC | 0.783%
